Assay results from different studies.
Each numbered part is a random draw from the data of one study; scales do not carry over between parts. Positions count from the first letter of the parent shown.

Set 1
Target: Interferon regulatory factor 5, full length, phosphomimetic (IRF5, Homo sapiens, UniProt Q13568-2, residues 1-514, S451D/S453D/S456D/S462D)
Technique: protein-binding microarray
Form: double-stranded DNA, one strand shown
Matrix: in vitro
Tested at: 940 nM top
Setting: 60-bp whole probe
With: salmon DNA 0.4 mg/ml
Reference: random background probes
Direction: higher = stronger binding
Quantity: fitted relative affinity
All sequences stand within: GCCTAGCAC … GTCTTGATTCGCTTGACGCTGCTG
TTAGGACTTCTTTTCCTTTAGTGCTAG: 0.43 z-score
GACGGACTACTTTTCCTGACGTGCTAG: -0.0535 z-score
TTGCTTTCCTTCTTGAACTCGTGCTAG: 1.32 z-score
TCATCTAGGTTTTCTGGAACTGTGCTA: 0.0933 z-score
TCTTTCACAAGACGAAAGGAGTGCTAG: 1.05 z-score
TCAATTCCCTTTCTCAAACTGTGCTAG: 1.44 z-score
CTTTCTCTCTGTGACACAGAGTGCTAG: 2.03 z-score
TTAGAACTGAGACTGGGTTAGTGCTAG: -0.444 z-score
TGAGGTTTCGGGACTGGGTTAGTGCTA: 5.06 z-score
TTAGGTCTCGGTATAGGTTAGTGCTAG: 4.87 z-score
CTACACATCTCACTCTAATCGTGCTAG: 1.42 z-score
GACAGTTCCCTTTTCCTGACGTGCTAG: 1.4 z-score
TTAGGTTCCGGTCTCGGTTAGTGCTAG: 4.67 z-score
TTAGATCTGGGGACTGGATTAGTGCTA: -0.262 z-score
TGGGCTACCGGGTCCCTCTTGTGCTAG: -0.744 z-score
TCATTTTTCAAGAAACAGACTGTGCTA: -0.0646 z-score
TTAGGACTGGGGTTTCGGTTAGTGCTA: 5.51 z-score
TCATTTCTACTTCTGTTACTGTGCTAG: 1.37 z-score
TTAGGACTGGACTTACGGTTAGTGCTA: -0.413 z-score
GACGGTCTCGGACCGGGGACGTGCTAG: 0.559 z-score
TCACTCATGGCTTTGTAGATGTGCTAG: 0.261 z-score
TAAGAACTGAGTTTCGATTAGTGCTAG: 8.09 z-score
ATTTTTTTGTAATCGAAATCTGTGCTA: 0.0128 z-score
GACGGTATAGGGTATCGGGACGTGCTA: 0.55 z-score
GACGATTTGAGTATCGAGACGTGCTAG: 2.03 z-score

Set 2
Target: Protein C-ets-1, full length (ETS1, Homo sapiens, UniProt P14921, residues 1-441)
Sequence of UniProt P14921 (whole entry, looked up): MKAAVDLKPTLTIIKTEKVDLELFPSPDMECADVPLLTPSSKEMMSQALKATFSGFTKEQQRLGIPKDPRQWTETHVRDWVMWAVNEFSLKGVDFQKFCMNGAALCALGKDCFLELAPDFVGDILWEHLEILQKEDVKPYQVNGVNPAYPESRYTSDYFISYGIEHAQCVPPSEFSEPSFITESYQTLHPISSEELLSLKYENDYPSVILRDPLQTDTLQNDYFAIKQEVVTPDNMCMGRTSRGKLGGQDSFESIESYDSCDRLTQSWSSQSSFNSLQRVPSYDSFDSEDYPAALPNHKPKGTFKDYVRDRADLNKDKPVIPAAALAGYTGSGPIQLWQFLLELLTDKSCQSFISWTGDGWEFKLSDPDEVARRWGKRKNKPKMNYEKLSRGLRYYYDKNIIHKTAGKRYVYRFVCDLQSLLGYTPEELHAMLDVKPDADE
Technique: protein-binding microarray
Form: hairpin DNA
Matrix: in vitro
Tested at: not given
Setting: whole hairpin DNA, median over replicate spots
Reference: not given
Direction: higher = stronger binding
Quantity: median fluorescence
GAGGCCAGCCGGAACTTGCCTCCTGGCAAGTTCCGGCTGGCCTCACACTC (5mC at 15): 2020 a.u.
GAGGCCCGCCGGAAGTTGCCTCCTGGCAACTTCCGGCGGGCCTCACACTC (5mC at 7 37): 8730 a.u.
GAGGCCAGTCGCGAGTTGCCTCCTGGCAACTCGCGACTGGCCTCACACTC: 551 a.u.
GAGGCCAGTCGGAGGTTGCCTCCTGGCAACCTCCGACTGGCCTCACACTC (5mC at 31): 764 a.u.
GAGGCCAGTCGCGAGTTGCCTCCTGGCAACTCGCGACTGGCCTCACACTC (5mC at 12 32): 556 a.u.
GAGGCCAGCCGCGAGTTGCCTCCTGGCAACTCGCGGCTGGCCTCACACTC (5mC at 12): 557 a.u.
GAGGCCAGTCGGAAGATGCCTCCTGGCATCTTCCGACTGGCCTCACACTC: 948 a.u.
GAGGCCAGCCGGAAGTTGCCTCCTGGCAACTTCCGGCTGGCCTCACACTC (5mC at 10 34): 1040 a.u.
GAGGCCAGCCGGAACGTGCCTCCTGGCACGTTCCGGCTGGCCTCACACTC (5mC at 15 29): 1000 a.u.
GAGGCCAGCCGGCAGTTGCCTCCTGGCAACTGCCGGCTGGCCTCACACTC (5mC at 13): 606 a.u.
GAGGCCAGCCGGAAGTCGCCTCCTGGCGACTTCCGGCTGGCCTCACACTC: 8710 a.u.

Set 3
Target: RNA binding protein fox-1 homolog 2, RRM domain, GST-SBP tag (RBFOX2, Homo sapiens, UniProt O43251-10, residues 100-194)
Technique: RNA Bind-n-Seq
Form: RNA
Matrix: in vitro
Tested at: 365 nM
Setting: natural RNA segment, single round, ends assumed
Reference: no-protein control
Direction: higher = stronger binding
Quantity: RBNS enrichment (R)
Construct (chain): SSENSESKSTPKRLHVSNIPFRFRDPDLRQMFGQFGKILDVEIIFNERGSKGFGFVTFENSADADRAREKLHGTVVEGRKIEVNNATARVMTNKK
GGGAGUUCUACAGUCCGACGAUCUGUGAUGUGUUCCAGGUUUAGCCUAGGGUCCAUUCUUGUCACUGUUUCUUACUGUGUAGAGUACCUUUGGCAAUGUCUCUUCUGUACAUAUUUAUUUAUUUGUGUUCACGUGGAAUUCUCGGGUGCCAA: 0.252
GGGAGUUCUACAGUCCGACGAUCUUUUUUUUUGAAAGUUUCAGCCUGUGGGAGGAAAAGAGGUAUCUUUUAAAAUAGAGAUAGUUACAUAUUUUCCUCAUCUAGGCUGUGUCACUAUUGGGUGCAAGGAUAUCUGGAAUUCUCGGGUGCCAA: 0.363
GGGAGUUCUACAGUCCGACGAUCAGCCUGAAUGGACGUAGCACUGUCAUGUGGCAUUUGGAAAAUCUUUAAUUAUCCUAAUGUUAUUUCACUUGCCCUUAUGCUUUAUUUUAGAGUCCCAGGGACAACUGGAUUGGAAUUCUCGGGUGCCAA: 0.426
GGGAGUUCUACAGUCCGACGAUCAAAAUAUAUCGUCCUAACAGUUAAAUUAACAAUCAAUCCAUAAAGUCCUAUAUCUUCAUUCAGCAACCCAAAUAUUACAUACAUUUCCAGAAUUUUCUUGAUUGUUACUUUGGAAUUCUCGGGUGCCAA: 1.27
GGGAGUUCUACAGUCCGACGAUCAUAAACCACUUGAGCCUAUAUCAGUCGUUUUAGUGUCUGACCUAAUAUUUGGAGCUAUCAGUGCUUUGUUGAUUUAGAUGAUGACUCAAGAUUUUUUCUGGUCCAUUUCCUGGAAUUCUCGGGUGCCAA: 0.331
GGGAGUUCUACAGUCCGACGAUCCAGCUGGGCUCCCUUUGUCAGAGUCAAUGGAUGAUGCUUCCAGGACAAAUCGGCUUCCUCUCCCCACCCUCCUGCCACUCUAAGUAUUGAAUGUACUUUGUAUAAUUUUAUGGAAUUCUCGGGUGCCAA: 1.52
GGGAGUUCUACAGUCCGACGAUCGCCUUCGCACCUGGAGGGUCAGAACGUGCACACACUGCUAACUAGUUUGCACCGGCAGUGCCUUUUUCACUGAGGGCACCUGUGCUCUCAGGUCCUUGUCCCUCAUAGCCUGGAAUUCUCGGGUGCCAA: 0.576
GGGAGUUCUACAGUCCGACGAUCUAAUGCUGUUUGUAACCAUGCAUCUGUUUUCAUUCUUUGCUGUACCUUUUGCUGCCCAUCCUGUUACUUUUGAGUUUCUUUCAUUGUGGUUGUUCUUGGGUUCUUUUGUCUGGAAUUCUCGGGUGCCAA: 1.5
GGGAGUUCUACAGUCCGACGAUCGACCAGCUGUCCAGGGGCUGCCUCCUGCCUUUUCUUUUGUAAAGACAAGACCCUUGGGAGUUUUAAUUCUGUUUUGUACUUGCCCUGUGGGGCCUCCACUGCUUUUCUAUUGGAAUUCUCGGGUGCCAA: 0.459
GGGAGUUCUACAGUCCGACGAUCUCCCGCCAGUCUCCAUUGAAUCAAUGGUGCAGGACAGAAAGCCAGUCAGACUAAUUUCCUUCUUUCCUCGCACUUCUCCCCACUCGUCAUCUUUUAACUAGUGUUUCACAUGGAAUUCUCGGGUGCCAA: 0.468
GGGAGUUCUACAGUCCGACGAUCGCCUAGGAAGUACAGAGCAUCCUGCCUGUGCCUUGGAGCCUGUGCACUGCUUUUGUAUGUGAUCUUGCAACAAACUCAGAAAUGGCUCCUUCCCAGCCCUACUGAAAAGCUGGAAUUCUCGGGUGCCAA: 0.317
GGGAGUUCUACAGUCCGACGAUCUCCCUGGUAGAUUGCGAACUCAAAGUUUUGUGAUCCCAAAGCCAUUCCACUGCAAAUGCCCAGCAGUGAAGAUGGCCUCAAAUUGGGUUCUUGCCUGCAGUGUGUGUGGCUGGAAUUCUCGGGUGCCAA: 0.429

Set 4
Target: CCNE1, cyclin fold, Cln2 fusion (human)
Technique: yeast growth competition, sequencing
Matrix: yeast
Setting: strong parent motif
Reference: not given
Direction: higher = stronger binding
Quantity: normalised enrichment score
Starting sequence: GMNC docking peptide (human); KNAKRNLSSEFAN
KFAKRNLSSEFAN [N2F]: 0.784
KNRKRNLSSEFAN [A3R]: -0.119
KNAKRNLSEEFAN [S9E]: 1.45
KNAKRNLSSEPAN [F11P]: -0.199
KNAERNLSSEFAN [K4E]: -0.146
KNAWRNLSSEFAN [K4W]: 0.0994
KNAKRNLSIEFAN [S9I]: 1.41
KNAKRNLSSESAN [F11S]: 0.482
KNAKRNLHSEFAN [S8H]: 0.664
KNAKRNLSSEYAN [F11Y]: 0.155
KNAKRNLDSEFAN [S8D]: 1.08
KCAKRNLSSEFAN [N2C]: 1.21
KNAKRNLSSEAAN [F11A]: 0.123
KQAKRNLSSEFAN [N2Q]: 1.38
KNAKNNLSSEFAN [R5N]: 0.039
KNAKRNDSSEFAN [L7D]: 0.382
KNAKRNSSSEFAN [L7S]: 0.137
KNARRNLSSEFAN [K4R]: 1.97

Some of these lines once more (set 2):
GAGGCCAGTCGCGAGTTGCCTCCTGGCAACTCGCGACTGGCCTCACACTC: 551 a.u.
GAGGCCAGCCGGAACGTGCCTCCTGGCACGTTCCGGCTGGCCTCACACTC (5mC at 15 29): 1000 a.u.
GAGGCCAGTCGGAGGTTGCCTCCTGGCAACCTCCGACTGGCCTCACACTC (5mC at 31): 764 a.u.
GAGGCCAGCCGGAAGTCGCCTCCTGGCGACTTCCGGCTGGCCTCACACTC: 8710 a.u.
